# Assay results of several laboratories.
# Every numbered part comes from another study and shows a few of its results, in no order. Changes are numbered by the printed parent chain.

# Sample 1
# Target: Centromere-binding protein 1, full length, His-tagged (CBF1, Saccharomyces cerevisiae, UniProt P17106, residues 1-351)
# Chain of UniProt P17106 (whole entry, looked up): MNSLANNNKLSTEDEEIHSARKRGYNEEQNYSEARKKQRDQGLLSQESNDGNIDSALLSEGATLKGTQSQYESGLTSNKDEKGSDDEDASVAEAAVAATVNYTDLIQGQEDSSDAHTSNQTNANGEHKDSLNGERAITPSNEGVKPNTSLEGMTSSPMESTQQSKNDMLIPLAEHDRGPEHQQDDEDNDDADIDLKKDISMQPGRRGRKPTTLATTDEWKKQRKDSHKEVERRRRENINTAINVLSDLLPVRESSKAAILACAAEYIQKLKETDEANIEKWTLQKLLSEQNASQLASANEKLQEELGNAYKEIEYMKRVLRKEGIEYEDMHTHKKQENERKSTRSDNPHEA
# Method: competition protein-binding microarray
# Molecule type: double-stranded DNA, one strand shown
# Medium: in vitro
# Tested at: 2 µM
# Setting: whole 60-bp probe, lowest competitor level
# Together with: Pho4 competitor, 0.05 µM
# Reading: higher = stronger binding
# Constant ends, left off below: … GTCTTGATTCGCTTGACGCTGCTG
Sequence,fluorescence intensity [a.u.]
GTCTTGTCTCATTGTCACTCAACTTTCCCCACTTCA,81.2
AAAGCGGTAATTTGTGGTGTGGGTGCAGATATCTAT,85.4
CCTGCCCTCACCATACAAAACAACCGTTTATAGATA,63.7
CCGATCTCTTTCCGACACGTGGAGGAGACATGAAAG,649
TCCAACAAATAAAGTTCCGTGATGGTTTAATGGTCA,94.1
GGCAATGGTGGCCGCTGCGTGCGATGTCTGGTGTAG,70.9
ATGTTAGCCTTTCACCACGTTCAGCAACCTTGTTGA,77.7
GGAACCGTCTGCAGCGATGTGACGGGTCTTGTAACC,55.9
TGCGCAACAACTTGTCCGGTGGGTGTATGTCTAGAA,63.6
ACATACCATATCCTGAACGTGAAGATCCCAGATGGA,73.4

# Sample 2
# Target: CCNF, cyclin fold, Cln2 fusion (human)
# Method: yeast growth competition, sequencing
# Medium: yeast
# Setting: strong parent motif
# Baseline: not given
# Reading: higher = stronger binding
# Starting sequence: ITGB3BP docking peptide (human); MPVKRSLKLDGLL
Change,normalised enrichment score
APVKRSLKLDGLL [M1A],3.35
MPVKRSLKFDGLL [L9F],8.13
MAVKRSLKLDGLL [P2A],5.98
MPVKRSLKLAGLL [D10A],1.74
MPVKRSLALDGLL [K8A],3.51
MPAKRSLKLDGLL [V3A],5.11
MPVKRSLKADGLL [L9A],0.934

# Sample 3
# Target: RNA binding protein fox-1 homolog 2, RRM domain, GST-SBP tag (RBFOX2, Homo sapiens, UniProt O43251-10, residues 100-194)
# Method: RNA Bind-n-Seq
# Molecule type: RNA
# Medium: in vitro
# Tested at: 365 nM
# Setting: natural RNA segment, single round, ends assumed
# Baseline: no-protein control
# Reading: higher = stronger binding
# Constant ends, left off below: GGGAGUUCUACAGUCCGACGAUC … UGGAAUUCUCGGGUGCCAA
# Target sequence (chain): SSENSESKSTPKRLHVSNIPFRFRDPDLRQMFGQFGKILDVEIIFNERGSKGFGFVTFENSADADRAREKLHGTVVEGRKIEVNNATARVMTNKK
Sequence,RBNS enrichment (R)
GCAGAUAAACUGAUGUUUGAAAUUCGCUGAAAUACUUAAUGUGGAAUAGGAUAAUAUACUUCCAAUGCCCUCAAGGCUGUGACCUUACAGCCAUUUUACAUAGCACAUCA,0.791
CUGUCACAUCGCUACAGACAAGACCUCCCUGGAACCCUUCUGAUUGUCUUAGACACUGUGGUUGCAAAACCCACGGAAAGCCUCAUUUGUGUGGAAAGUCAGAGGAAAAA,0.469
AUCUGGUAAUAAUACCAUGCAAUAUAGCGUUGUAUACCAACUUAGUGCAUUUUAUACUGUAUUAAAUAUGGAGAUACUUCUAAUGCCUCUCUAAAAUUAAAUUUUACAUA,0.38
CACCUUGAGGGGCUGACCUGUGUUAGGCAGUGGCCAUGGCCCAGUGUGAUGUUGUGUUGCUCACACACGCCACCCAGCCACCCAUGCGCUGCCUGACCACAGCAACCCCC,0.309
AUACAGGGCCUGGUGGUCUGCUCCAUCUGGCCCCUGGCCCAUCUCUUCUGUGCCUUAGUCACAUAUGAAAGCCCCUCCCCAGUUCCCGUCUGCUCCAGGCACUCCUCGUU,0.363
GUAUAGAUUGUGCAUUUAAAGCUGUUACCAAGUUGUCAGAACCCUAAGAAUGAAAACAGGUCAUAUGUAAUAUUUUGUUUGUAAGUAUCCUUUGUAUCAUAGCAAAGGAA,1.09
UGGGAGUGGGUCCGCGCUGCUCUGCAGCAGGGGCUGGGGAGUGGACAGCAUCAGGUGGGAAAGUGGAGUCCACCCUCAUGUUUCUGUAGGAUUCUCACCGUGGGGCUGGA,0.879

# Further values, each from its own experiment
Substance,target,assay,test system,conditions,how to read,endpoint,result
"PhoQ, residues 284 288 289 292 302 303 SVTLVV","PhoP, residues 12 14 15 18 19 SQCLL (Escherichia coli, UniProt P23836)","Sort-seq, refers to: YFP reporter",E. coli,"PhoQ-PhoP variant library, together with: 10 µM Mg2+","baseline: high Mg2+ state, higher = stronger signaling",fold induction,15.3

# For quick reference, copied from above (sample 1):
Sequence,fluorescence intensity [a.u.]
CCTGCCCTCACCATACAAAACAACCGTTTATAGATA,63.7
CCGATCTCTTTCCGACACGTGGAGGAGACATGAAAG,649
TCCAACAAATAAAGTTCCGTGATGGTTTAATGGTCA,94.1
